Measured values pooled from the literature.
Parts stem from different laboratories: compare values within a part only.

Set 1 — method: RNA Bind-n-Seq; molecule type: RNA; sample: in vitro; tested at: 365 nM; reference: no-protein control; reading: higher = stronger binding; measurement: RBNS enrichment (R)
Target: RNA binding protein fox-1 homolog 2, RRM domain, GST-SBP tag (RBFOX2, Homo sapiens, UniProt O43251-10, residues 100-194)
Setting: natural RNA segment, single round, ends assumed
All sequences stand within: GGGAGUUCUACAGUCCGACGAUC … UGGAAUUCUCGGGUGCCAA
CUAGGGGUCACUUAUCUCUAUUACGUAAUCUAACUGGAAUAAUUUCCUAGAAUUCUUACUAGUGAAAUCUUACCCAAGUAAAACAAUUUAUUAUUUUGAAUCCAAAUGAA: 0.72
UGGCUUUUAACAUUAAUGCAAAUCAUGCAGAAUUUGAGUUAUAAAUUUAAAUAUAAAUUGACCAUUGAUGAUAUCCAGUUUUUCAUUUUUUACCUGUAUUGCAUUUUCCC: 0.863
AGGAAAGAAGGGGUUGCUUUAUGGAUAAGCCUGUAGAAUCGGCUGCUUCCUAUGACUCCCUGGCUGCACAAGAAGAAAUUGUCUGUCUUCCAUAUAUGCUUCUAAGUAUC: 0.857
AAUUCAUAGUAUAUUGUUGUUUGUGACAUGAACUCCAAGAUACACAAAGGAGCCCAGGGAACUAUGUCCCCAGUAGGUUUAACCCAACCAAACACCAGAGGCUGUUAAUU: 0.417
GUGGGAGGUCAAGUGGGGAAGUUGGUGAAUGUGGAAUAACUUACCUUUGUGCUCCACUUAAACCAGAUGUGUUGCAGCUUUCCUGACAUGCAAGGAUCUACUUUAAUUCC: 0.948
GUUUGUUGUAUGAACCAAGUGGUUUGAAGACUUGCUGCCAAAUUCUGCCUUUUGGGUCAGUAUAGGAUGCAUAAGUGGUAGAAUCUUCACACUUCCCACUGCCAAGAUUU: 1.83
GCUCAGUCAAUCUGGUGCAGAUGAGGCUGGACAACUACUAACCAAUAAAAUCAGGAGUUUGUACAAAAGUUAAAUGGAACAUUAUAAUUAUUUUAAGUAAUGUUAAUUGA: 0.614
UGAAGACAUGGACCUCAACAAGGAUGGCGAGGUCCCUCCGGAGGAGGUCUCCACCUUCAUCAAGGCUCAAGUGAGUGAGGGCAAAGGACGCCUCAUGCCUGGGCAGGACC: 0.41

Set 2 — method: protein binding microarray; molecule type: double-stranded DNA, one strand shown; sample: in vitro; tested at: not given; reference: not given; reading: higher = stronger binding; measurement: E-score
Target: Histone acetyltransferase KAT6A, both winged helices, GST fusion (KAT6A, Homo sapiens, UniProt Q92794, residues 1-181)
Setting: 8-mer, flanks averaged, mean of 2 arrays, mostly near background
Construct (chain): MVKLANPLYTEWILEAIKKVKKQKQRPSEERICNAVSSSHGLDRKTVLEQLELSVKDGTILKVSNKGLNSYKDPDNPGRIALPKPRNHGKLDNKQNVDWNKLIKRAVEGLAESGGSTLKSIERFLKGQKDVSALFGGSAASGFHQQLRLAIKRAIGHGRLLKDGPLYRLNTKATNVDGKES
CCCACGTA: -0.194
CCACCGGC: 0.145
ATGCTGAC: -0.114
GAGGGAGC: 0.0172
ACGCCTAA: -0.037
CAGCAAAC: -0.0814
AGCTAGCC: -0.0542
GTCTGTGA: -0.0283
CGAGTACA: -0.13
CGCTGGGA: 0.01
CTCCAGGA: -0.142
CCTGGTAG: -0.247
CCGTACCC: 0.199
AGGTGTAA: -0.152
GCTGAACA: -0.121
AGCTCATC: -0.174
TCAGCTCA: -0.0781
CGCTGTAG: 0.135

Set 3 — method: protein-binding microarray; molecule type: double-stranded DNA, one strand shown; sample: in vitro; tested at: 940 nM top; setting: 60-bp whole probe; together with: salmon DNA 0.4 mg/ml; reference: random background probes; reading: higher = stronger binding; measurement: fitted relative affinity; all sequences stand within: GCCTAGCAC … GTCTTGATTCGCTTGACGCTGCTG
Target: Interferon regulatory factor 5, full length, phosphomimetic (IRF5, Homo sapiens, UniProt Q13568-2, residues 1-514, S451D/S453D/S456D/S462D)
TCACTTTTTTTTTTTTTACTGTGCTAG: 1.49 z-score
TCTTTTATTTTTTTTATTTAGTGCTAG: 2.06 z-score
GACGGTATCCTGCTGCTGACGTGCTAG: -0.0869 z-score
GACGATTTCGGGACTGGATACGTGCTA: -0.0306 z-score
TCACATTACAGCTATTTTACTGTGCTA: 0.86 z-score
TTACGTATCCTTTTCCTTTAGTGCTAG: 1.56 z-score
GACGGTTTTGGGACTGGGGACGTGCTA: 1.02 z-score
ACCCATTGAGATTTCCATTAGTGCTAG: 0.579 z-score
TTAGAAATGGGGTATCGATTAGTGCTA: 2.77 z-score
TCATTTTTGCTTACGATACTGTGCTAG: 0.996 z-score
GACGAACGGAGTCTCGAGACGTGCTAG: 0.242 z-score
TTAGATTTCGGGACGGGATTAGTGCTA: 0.777 z-score
GTCGATCTCAGTCTCGAGACGTGCTAG: 2.55 z-score
GACGATTTGAGACTGGAGACGTGCTAG: -0.412 z-score
CTCTGCTTGGGTCTGGGTATGTGCTAG: -0.494 z-score
TTAGATTTCAGTTCCGTTTAGTGCTAG: 1.77 z-score
GACAGTCTCCTTATCCTGACGTGCTAG: 0.861 z-score
TTAGATTTCGGGGTTCGATTAGTGCTA: 1.44 z-score
TCACTTCTCTTTTGGCTACTGTGCTAG: 1.72 z-score

Set 4 — method: protein-binding microarray; molecule type: double-stranded DNA, one strand shown; sample: in vitro; tested at: not given; reading: higher = stronger binding; measurement: E-score
Target: Hepatocyte nuclear factor 3-beta, forkhead domain (FOXA2, Homo sapiens, UniProt Q9Y261, residues 142-269)
Setting: k-mer, scored over probes, only values ≥0.25
Construct (chain): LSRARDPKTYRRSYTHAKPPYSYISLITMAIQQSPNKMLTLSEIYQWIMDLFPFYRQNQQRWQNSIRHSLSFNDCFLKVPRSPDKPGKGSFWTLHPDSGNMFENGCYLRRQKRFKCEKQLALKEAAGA
GAGATCAA: 0.287
AACAACAC: 0.346
CATCGATA: 0.263
ATAAGAAA: 0.265
AGTCATGA: 0.271
ATAATTAG: 0.257
TGTCAACA: 0.4
AACACTTC: 0.266
ATACTATC: 0.261
AAACAAGA: 0.251
ATTATGAC: 0.28
TTGATCAA: 0.294
ACTCGGTA: 0.277
CTTTGTAA: 0.315
ATATGTTA: 0.369
CATGATAA: 0.282
ATGTTTGA: 0.29
ATAGTAAT: 0.268
TATAGACA: 0.355
ATCCATAA: 0.283
AAGGACAT: 0.305
GAATATAA: 0.292
AATATATG: 0.385
AGTATTAT: 0.26
GTGTATCA: 0.321

A few entries again (set 3):
ACCCATTGAGATTTCCATTAGTGCTAG: 0.579 z-score
TCATTTTTGCTTACGATACTGTGCTAG: 0.996 z-score
TCACTTTTTTTTTTTTTACTGTGCTAG: 1.49 z-score
TTAGATTTCAGTTCCGTTTAGTGCTAG: 1.77 z-score
TTAGATTTCGGGACGGGATTAGTGCTA: 0.777 z-score
TTAGAAATGGGGTATCGATTAGTGCTA: 2.77 z-score
TCTTTTATTTTTTTTATTTAGTGCTAG: 2.06 z-score
GACAGTCTCCTTATCCTGACGTGCTAG: 0.861 z-score
GACGGTTTTGGGACTGGGGACGTGCTA: 1.02 z-score
TCACTTCTCTTTTGGCTACTGTGCTAG: 1.72 z-score
GACGATTTGAGACTGGAGACGTGCTAG: -0.412 z-score
